Published values of several laboratories.
Protocols differ between the studies behind these lines. Numbers after ± are the reported error.

COc1ccc2c3c1O[C@H]1C[C@@H](OC(=O)c4ccccc4)C=C[C@@]31CCN(C)C2 — AUC(0-last) (Swiss albino mouse, brain; intravenous, 3.0 mg/kg): 151000 ng·min/g
C[C@H]1CNCCN1c1nccc(-c2noc3c2CCC[C@@]32CCCc3sc(N)c(C#N)c32)n1 — AUC(0-last) (mouse, plasma; po, 50 mg/kg): 42.3 µM·h
CC[C@H](C)[C@@H]1NC(=O)[C@@](C)(NC(=O)[C@H](CCCNC(=N)N)NC(=O)[C@H](CC(C)C)NC(=O)[C@@H](NC(=O)[C@H](CCC(N)=O)NC(=O)[C@H](CC(C)C)NC(C)=O)[C@@H](C)O)CCCC=CCCC[C@@](C)(C(=O)N[C@@H](CC(C)C)C(=O)N[C@@H](Cc2ccc3ccccc3c2)C(N)=O)NC(=O)[C@H](CCCNC(=N)N)NC(=O)[C@H](CCC(N)=O)NC1=O — AUC(0-last) (male BALB/c mouse, plasma; intramuscular, 5 mg/kg): 44900 ng·h/mL
O=C(NO)c1ccc(CN(c2cnccn2)c2cnccn2)cc1 — AUC(0-last) (item: total compound; male C57BL/6 mouse, B16-F10 tumour, plasma; oral, 200 mg/kg once daily): 1270 ng·h/mL
O=C(COc1ccc(N2C(=O)[C@@H]3[C@@H]4C=C[C@@H]([C@H]5C[C@@H]45)[C@@H]3C2=O)cc1)c1cc(Cl)cc(Cl)c1 — AUC(0-last) (mouse, brain; ip, 10 mg/kg): 720000 ng·min/g
COc1ccc2nc(-c3ccccn3)c(N(C)c3ccc(F)cc3)n2c1 — AUC(0-last) (CD1 mouse, male, fasted, plasma; oral, 50 mg/kg, added: ABT 50 mg/kg): 866 ng·h/mL
O=C(COc1cnc(N2C(=O)[C@@H]3[C@@H]4C=C[C@@H]([C@H]5C[C@@H]45)[C@@H]3C2=O)nc1)c1ccc(Cl)c(Cl)c1 — AUC(0-last) (mouse, brain; ip, 10 mg/kg): 83800 ng·min/g
Cc1ccc2c(c1)C(=O)[C@]1(O)CCN(c3ccc4nc(C)ccc4c3)C1=N2.Cl — AUC(0-last) (mouse, brain; subcutaneous, 5 mg/kg): 5.4 ± 0.8 µM·h

Repeated from above:
O=C(NO)c1ccc(CN(c2cnccn2)c2cnccn2)cc1 — AUC(0-last) (item: total compound; male C57BL/6 mouse, B16-F10 tumour, plasma; oral, 200 mg/kg once daily): 1270 ng·h/mL
